Results of several laboratories.
Every numbered part comes from another study and shows a few of its results, in no order. ± marks the error that the study gave.

Series 1
Target: C-X-C chemokine receptor type 4 (CXCR4, Homo sapiens, UniProt P61073)
Sequence of UniProt P61073 (whole entry, looked up): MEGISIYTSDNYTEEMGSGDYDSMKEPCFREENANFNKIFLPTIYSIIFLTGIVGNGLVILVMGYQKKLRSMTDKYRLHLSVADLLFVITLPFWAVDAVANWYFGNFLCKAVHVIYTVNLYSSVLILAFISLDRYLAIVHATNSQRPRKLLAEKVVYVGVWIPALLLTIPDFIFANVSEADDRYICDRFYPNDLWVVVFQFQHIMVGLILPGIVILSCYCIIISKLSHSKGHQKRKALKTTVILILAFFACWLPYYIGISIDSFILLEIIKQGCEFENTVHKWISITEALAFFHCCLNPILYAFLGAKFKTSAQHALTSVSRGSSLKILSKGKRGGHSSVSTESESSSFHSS
Effect on: ligand displacement
Technique: radioligand
Measurement: IC50
CC(C)C[C@H](NC(=O)[C@H](CO)NC(=O)[C@@H](NC(=O)[C@@H]1CCCN1C(=O)[C@@H](N)CCCCN)C(C)C)C(=O)N[C@@H](CO)C(=O)N[C@@H](Cc1ccc(O)cc1)C(=O)N[C@@H](CCCNC(=N)N)C(=O)NCCCC[C@@H]1NC(=O)[C@H](CCCNC(=N)N)NC(=O)[C@H](Cc2ccc(O)cc2)NC(=O)[C@@H]2CCCN2C(=O)[C@@H](CCCCN)NC(=O)[C@H](CCCCN)NC(=O)[C@H](CCCNC(=N)N)NC(=O)[C@H](Cc2ccc(O)cc2)NC(=O)[C@@H](NC(=O)[C@H](Cc2ccc3ccccc3c2)NC(=O)[C@H](CCCNC(=N)N)NC(=O)[C@@H](N)CCCNC(=N)N)CSSC[C@@H](C(=O)N[C@@H](CCCNC(=N)N)C(=O)O)NC1=O: 2.22 nM
CC(C)C[C@H](NC(=O)[C@H](CO)NC(=O)[C@@H](NC(=O)[C@@H]1CCCN1C(=O)[C@@H](N)CCCCN)C(C)C)C(=O)N[C@@H](CO)C(=O)N[C@@H](Cc1ccc(O)cc1)C(=O)N[C@@H](CCCNC(=N)N)C(=O)NCCCC[C@H](NC(=O)[C@@H]1CSSC[C@H](NC(=O)[C@H](Cc2ccc3ccccc3c2)NC(=O)[C@H](CCCNC(=N)N)NC(=O)[C@@H](N)CCCNC(=N)N)C(=O)N[C@@H](Cc2ccc(O)cc2)C(=O)N[C@@H](CCCNC(=N)N)C(=O)N[C@@H](CCCCN)C(=O)N[C@H](CCCCN)C(=O)N2CCC[C@H]2C(=O)N[C@@H](Cc2ccc(O)cc2)C(=O)N[C@@H](CCCNC(=N)N)C(=O)N[C@@H](CCCNC(=N)N)C(=O)N1)C(=O)O: 16.5 nM
CC(C)C[C@H](NC(=O)[C@H](CO)NC(=O)[C@@H](NC(=O)[C@@H]1CCCN1C(=O)[C@@H](N)CCCCN)C(C)C)C(=O)N[C@@H](CO)C(=O)N[C@@H](Cc1ccc(O)cc1)C(=O)NCCCC[C@H](NC(=O)[C@@H]1CSSC[C@H](NC(=O)[C@H](Cc2ccc3ccccc3c2)NC(=O)[C@H](CCCNC(=N)N)NC(=O)[C@@H](N)CCCNC(=N)N)C(=O)N[C@@H](Cc2ccc(O)cc2)C(=O)N[C@@H](CCCNC(=N)N)C(=O)N[C@@H](CCCCN)C(=O)N[C@H](CCCCN)C(=O)N2CCC[C@H]2C(=O)N[C@@H](Cc2ccc(O)cc2)C(=O)N[C@@H](CCCNC(=N)N)C(=O)N[C@@H](CCCNC(N)=O)C(=O)N1)C(=O)O: 170 nM

Other studies, line by line
aminopeptidase N2 N1303Q/N840Q: aminopeptidase N2 (Toxoplasma gondii, UniProt S8G5K8, N1303Q/N840Q)
O=C(O)COc1ccc(Br)cc1/C=N/NC(=O)c1ccc(Cl)cc1 — survival (male mice, pilocarpine-induced seizures; oral, 20 mg/kg, 24 h, dosed 30 min before pilocarpine, added: pilocarpine 300 mg/kg i.p.): 90%
CC[C@H](C)[C@H](NC(=O)[C@H](CC(C)C)NC(=O)[C@H](CCCNC(=N)N)NC(=O)CCNC(=O)CCNC(=O)[C@@H]1CSSC[C@H](NC(=O)[C@H](Cc2ccc(O)cc2)NC(=O)[C@@H]2CCCN2C(=O)CCN)C(=O)N[C@@H](C(C)C)C(=O)N[C@@H](Cc2ccc(O)cc2)C(=O)N[C@@H](CCCNC(=N)N)C(=O)NCCC(=O)N[C@@H](CO)C(=O)N[C@@H](Cc2c[nH]c3ccccc23)C(=O)N[C@@H](CO)C(=O)N1)C(=O)N[C@@H](CCC(=O)O)C(=O)N[C@@H](CC(=O)O)C(=O)N[C@H](C(=O)N[C@H]1CSSC[C@@H](C(=O)N[C@@H](CC(C)C)C(=O)N[C@@H](Cc2c[nH]c3ccccc23)C(=O)N[C@@H](CCC(=O)O)C(=O)N[C@@H](CC(=O)O)C(=O)N[C@@H](CC(=O)O)C(N)=O)NC(=O)CNC(=O)[C@H](Cc2c[nH]c3ccccc23)NC(=O)[C@H](CCCNC(=N)N)NC(=O)[C@@H]2CCCN2C(=O)[C@H](CC(C)C)NC1=O)[C@@H](C)CC — potency loss with BSA (EphA4; ephrin-A5 binding, inhibitor; added: BSA 20 mg/mL; reference: without BSA): ~8 fold
C=CCCCC(C)(NC(=O)[C@H](CC(N)=O)NC(=O)[C@H](Cc1c[nH]cn1)NC(=O)[C@@H](N)CC(=O)O)C(=O)N1CCC[C@H]1C(=O)N[C@@H](CCC(N)=O)C(=O)N[C@H](C(=O)N[C@@H](CCCNC(=N)N)C(N)=O)[C@@H](C)CC (stereo partly drawn) — viability (NIH3T3; cytotoxicity, MTT; up to 10 µM, 24 h): not toxic
CC[C@H](C)[C@@H]1NC(=O)[C@H](C(C)C)NC(=O)[C@H](Cc2ccccc2)NC(=O)[C@H](Cc2ccccc2)NC(=O)[C@@H]2CCCN2C(=O)[C@@H]2CCCN2C(=O)[C@H]([C@@H](C)CC)NC(=O)[C@H](CC(C)C)NC(=O)[C@H](CC[S+](C)[O-])NC1=O (stereo partly drawn) — cytotoxicity (A-375; LDH release; 500 µM, 48 h; reference: DMSO): 32%
CC(C)(C)OC(=O)NC(C(=O)NO)c1ccc(Br)cc1 (stereo not drawn) — Ki (aminopeptidase N2 N1303Q/N840Q): 2900 nM
C=CCCCC(C)(NC(=O)[C@H](Cc1c[nH]cn1)NC(=O)[C@@H](N)CC(=O)O)C(=O)N[C@@H](CC(N)=O)C(=O)N1CCC[C@H]1C(=O)N[C@@H](CCC(N)=O)C(=O)N[C@H](C(=O)N[C@@H](CCCNC(=N)N)C(N)=O)[C@@H](C)CC (stereo partly drawn) — acute toxicity (Kunming mouse; subcutaneous, 0.5 to 62.5 mg/kg, 14 days): not toxic
N=C(N)N[C@@H]1C[C@@H](C(=O)N[C@@H](Cc2ccc(O)cc2)C(N)=O)N(C(=O)CN(CCNC(=O)[C@H](CCCCNC(=O)c2cnccn2)NC(=O)[C@H](CCCCNC(=O)[C@H]2C[C@@H](N)CN2C(=O)CN(CCNC(=O)CN(CCN)C(=O)Cn2cnc3c(=O)[nH]c(N)nc32)C(=O)Cn2cnc3c(=O)[nH]c(N)nc32)NC(=O)[C@H]2C[C@@H](N)CN2C(=O)CN(CCNC(=O)CN(CCN)C(=O)Cn2cnc3c(=O)[nH]c(N)nc32)C(=O)Cn2cnc3c(=O)[nH]c(N)nc32)C(=O)Cn2cnc3c(=O)[nH]c(N)nc32)C1 — IC50 (HEK-293T transfected GagPol-RRE reporter; Rev-RRE nuclear export reporter, inhibitor, item: p24; 48 h): 15400 nM
CC(C)C[C@H](NC(=O)[C@@H](NC(=O)[C@H](CCONC(=N)N)NC(=O)OCc1ccccc1)C1CCCCC1)[C@@H](O)CC(=O)NCCc1ccccc1 — EC50 fold change (Plasmodium falciparum; LDH growth; parental resistant; 72 h; reference: 3D7): 3 fold
O=C(O)COc1ccc(Br)cc1C=NNC(=O)Cc1ccccc1 (mixture of isomers) — urea (mouse, serum; oral, 100 mg/kg, 48 h): 37.8 ± 2.23 mg/dL
CC(C)C[C@@H]1NC(=O)[C@H](CCCN)NC(=O)[C@H](C(C)C)NC(=O)[C@@H]2CCCN2C(=O)[C@@H](Cc2ccccc2)NC(=O)[C@H](CC(C)C)NC(=O)[C@H](CCCN)NC(=O)[C@H](C(C)C)NC(=O)[C@@H]2CCCN2C(=O)[C@@H](Cc2ccccc2)NC1=O — HC10 (human erythrocytes): > 15.6 µg/mL
Cc1ccc(C(=O)N/N=C/c2cc(Br)ccc2OCC(=O)O)cc1 — mortality (mice, PTZ-induced seizures; oral, 20 mg/kg, 24 h after PTZ): 10%
CC(C)(C)C(=O)NC(C(=O)NO)c1ccc(-c2ccsc2)cc1 (stereo not drawn) — Ki (aminopeptidase N2 N1303Q/N840Q): 2400 nM

Excerpt of the above (other studies, line by line):
C=CCCCC(C)(NC(=O)[C@H](Cc1c[nH]cn1)NC(=O)[C@@H](N)CC(=O)O)C(=O)N[C@@H](CC(N)=O)C(=O)N1CCC[C@H]1C(=O)N[C@@H](CCC(N)=O)C(=O)N[C@H](C(=O)N[C@@H](CCCNC(=N)N)C(N)=O)[C@@H](C)CC (stereo partly drawn) — acute toxicity (Kunming mouse; subcutaneous, 0.5 to 62.5 mg/kg, 14 days): not toxic
N=C(N)N[C@@H]1C[C@@H](C(=O)N[C@@H](Cc2ccc(O)cc2)C(N)=O)N(C(=O)CN(CCNC(=O)[C@H](CCCCNC(=O)c2cnccn2)NC(=O)[C@H](CCCCNC(=O)[C@H]2C[C@@H](N)CN2C(=O)CN(CCNC(=O)CN(CCN)C(=O)Cn2cnc3c(=O)[nH]c(N)nc32)C(=O)Cn2cnc3c(=O)[nH]c(N)nc32)NC(=O)[C@H]2C[C@@H](N)CN2C(=O)CN(CCNC(=O)CN(CCN)C(=O)Cn2cnc3c(=O)[nH]c(N)nc32)C(=O)Cn2cnc3c(=O)[nH]c(N)nc32)C(=O)Cn2cnc3c(=O)[nH]c(N)nc32)C1 — IC50 (HEK-293T transfected GagPol-RRE reporter; Rev-RRE nuclear export reporter, inhibitor, item: p24; 48 h): 15400 nM
